# Measurements from different studies.
# Every numbered part comes from another study and shows a few of its results, in no order.

# Set 1
# Target: Alpha-1D adrenergic receptor (ADRA1D, Homo sapiens, UniProt P25100)
# Chain of UniProt P25100 (whole entry, looked up): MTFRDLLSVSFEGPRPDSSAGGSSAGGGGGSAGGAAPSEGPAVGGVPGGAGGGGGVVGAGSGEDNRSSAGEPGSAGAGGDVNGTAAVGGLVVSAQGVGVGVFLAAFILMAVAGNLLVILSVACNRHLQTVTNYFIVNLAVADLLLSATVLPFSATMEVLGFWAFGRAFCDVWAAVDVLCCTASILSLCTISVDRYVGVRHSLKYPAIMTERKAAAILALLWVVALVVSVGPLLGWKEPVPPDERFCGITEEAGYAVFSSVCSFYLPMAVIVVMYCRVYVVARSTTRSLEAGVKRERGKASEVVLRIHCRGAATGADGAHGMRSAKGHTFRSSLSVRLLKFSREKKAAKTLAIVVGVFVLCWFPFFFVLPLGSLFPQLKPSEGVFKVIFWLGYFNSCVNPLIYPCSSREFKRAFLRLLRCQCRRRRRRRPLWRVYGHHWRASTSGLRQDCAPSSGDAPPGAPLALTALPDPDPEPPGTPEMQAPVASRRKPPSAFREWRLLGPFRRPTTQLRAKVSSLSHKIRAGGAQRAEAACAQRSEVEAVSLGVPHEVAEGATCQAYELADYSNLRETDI
# Effect on: ligand displacement
# Tested at: 10 µM
Structure (SMILES),inhibition [%]
CCC(F)(F)c1cc(N2CCC(S(C)(=O)=O)CC2)nc2sc(C(N)=O)c(N)c12,36.7
O=C(NS(=O)(=O)c1ccc(NCC2CCOCC2)c([N+](=O)[O-])c1)c1ccc(N2CCN(Cc3ccc(C(F)(F)F)cc3-c3ccc(Cl)cc3)CC2)cc1Oc1cnc2[nH]ccc2c1,-26.4
CO[C@H]1CC[C@H](CNc2ccc(S(=O)(=O)NC(=O)c3ccc(N4CCN(CC5=C(c6ccc(Cl)cc6)CC(C)(C)CC5)CC4)cc3Oc3cnc4[nH]ccc4c3)cc2[N+](=O)[O-])CC1,-9.01
Cn1cc(Cl)c2c(Oc3c(F)cc(Nc4cc(Cl)nc(N)n4)cc3F)ccnc21,-6.73
Cc1c(NC(=O)c2cc(C(N)=O)nc3cc(F)ccc23)c(C(F)(F)F)nn1Cc1ccc(C#N)cc1,7.36
CC1CCN(c2ccnc(NCc3cn(C)cn3)n2)CC1,25.1
O=C(Nc1ccc(Oc2ccc(F)cc2)cc1)N1CCc2ncccc2[C@H]1c1ccc(F)cc1,34
Cc1noc([C@H]2C[C@@H](c3ccc(C(F)(F)F)cc3)CN(C(=O)N3CCS(=O)(=O)C3)C2)n1,-1.84
O=S(=O)(NC1CCC(c2cc(F)ccc2F)(S(=O)(=O)c2ccc(Cl)cc2)CC1)C(F)(F)F (centres unmarked),0.882
Cc1ncc(-c2cc(Cl)ccc2F)cc1-n1c(=O)n(CC(N)=O)c2ccccc21,2.71
COc1cc(-c2cn(C3CCc4c(F)cccc4N(CC(F)(F)F)C3=O)nn2)ccc1-n1cnc(C)c1 (centres unmarked),2.11

# Set 2
# Species: mouse
# Sample: microsomes or S9
# Tested at: 2 µM
# Time: 0.5 h
Compound,remaining compound [%]
Cc1nn(CCOC(=O)c2ccoc2)c2ncc(Br)cc12,7.32
OCC1(COc2ccccc2-c2nncn2-c2ccccc2)COC1,> 100
Cn1nc(C2CCCN2C(=O)COc2ccc(F)cc2)c2c1CCOC2 (centres unmarked),9.57

# Set 3
# Target: His6 tag
# Technique: AlphaScreen counter screen
# Tested at: concentration not given
Structure (SMILES),inhibition [%]
O=C(NC1CCCC1)c1n[nH]c2ccccc12,4.55
Oc1c2ccccc2c2c3c(cccc13)N=N2,6.4
NC(=O)c1ccc2ccccc2c1,-5.35
N#CC(=Cc1ccccn1)c1nc2ccccc2s1,-5.1
CCC(Sc1ccc2nnc(-c3ccc(OC)c(OC)c3)n2n1)C(=O)OC (centres unmarked),8.95
COc1ccc2[nH]c([S+]([O-])Cc3ncc(C)c(OC)c3C)nc2n1 (centres unmarked),-15.3

# Set 4
# Cell line: HaCaT
# Tested at: 100 µM
# Time: 36 h
Structure (SMILES),viability [%]
CNS(=O)(=O)Cc1ccc2[nH]cc(CCN(C)C)c2c1,58.5
N#C/C(=C1/SC[C@@H](c2ccc(Cl)cc2Cl)S1)n1ccnc1,26.8
CC1(C)S[C@@H]2[C@H](NC(=O)[C@H](C(=O)O)c3ccsc3)C(=O)N2[C@H]1C(=O)O,92.7
O=c1c(-c2ccc(O)cc2)coc2cc(O[C@@H]3O[C@H](CO)[C@@H](O)[C@H](O)[C@H]3O)ccc12,92.7
CCc1cccc2c3c([nH]c12)C(CC)(CC(=O)O)OCC3 (centres unmarked),92.5
O=C1O[C@H](CO)[C@@H](O)[C@H](O)[C@H]1O,83.5
